Measurements of several laboratories.
Each numbered part is a random draw from the data of one study; scales do not carry over between parts.

Study 1 — technique: RNA Bind-n-Seq; molecule type: RNA; sample: in vitro; concentration: not given; relative to: input RNA pool; reading: higher = stronger binding
Target: RING finger protein unkempt homolog, zinc fingers 1-6, GST-SBP tag (UNK, Homo sapiens, UniProt Q9C0B0, residues 30-357)
Chain of UniProt Q9C0B0 (30-357, looked up): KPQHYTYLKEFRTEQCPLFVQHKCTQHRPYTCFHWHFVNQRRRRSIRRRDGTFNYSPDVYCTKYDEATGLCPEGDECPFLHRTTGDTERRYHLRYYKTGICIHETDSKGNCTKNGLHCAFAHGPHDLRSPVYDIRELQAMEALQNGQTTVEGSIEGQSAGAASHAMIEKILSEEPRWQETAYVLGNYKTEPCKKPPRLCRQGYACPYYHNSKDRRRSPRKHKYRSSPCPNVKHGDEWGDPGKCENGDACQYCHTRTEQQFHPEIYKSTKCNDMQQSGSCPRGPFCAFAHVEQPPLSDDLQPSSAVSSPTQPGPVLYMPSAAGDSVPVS
Setting: RNA with constant flanks, human and mouse sites, ends assumed
Oligonucleotide | bound/input enrichment
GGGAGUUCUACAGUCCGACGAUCAUGGAGAUGUACCAGCCUAGCGCGGUGGUGCUGCAGUGUGGCGCAGACUCCCUGUCUGGGGACAGGCUUGGUUGUUUCAAUCUAACUGUCAAAGGUCAUGCUAAAUGUGUAGAAGUAGUGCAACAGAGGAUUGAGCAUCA | 0.592 ratio
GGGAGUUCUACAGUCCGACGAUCAACGAUGUUGAAGUCAAAUGGAUUGAAUACCAGAAUAUGGUGAACUACCUCAUCCAGUGGAUUAGACACCACGUGGUCACUAUGUCCGAGAGAACAUUUCCUAACAACCCUCUAGAACUACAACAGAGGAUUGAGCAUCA | 0.216 ratio
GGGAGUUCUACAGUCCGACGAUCACCACAGCACUUUGCAGGCAAGCAGGCCAAGAAGCCCUGUCAGUCCUCAGGUUCAGCAAGUCCUAGUGUCCUGAAAGCCACAGAAGUAAACAAGAGCUGCCGGCAGCUGAACAAUCGCUCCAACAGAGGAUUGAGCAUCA | 0.188 ratio
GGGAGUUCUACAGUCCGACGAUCACUGAAGAAGAUGAUGAUGGGGAAUUAGCACUGUGGUCCCCUGAAGUCAAGAUUGUUGAACUAGUAAAAGAUUGUAAAGGUUUGGGAUUCAGCAUUUUGGAUUACCAGGACCCUUUAGAUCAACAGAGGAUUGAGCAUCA | 0.363 ratio
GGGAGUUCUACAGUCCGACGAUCGAAUUCAAUUUAUUUAAACAAAAAAAAUUUUUUAAAGAUUUAUUUAUUUAUUAUAUGUAAGUACACUGUAGCUGUCUUCAGACACCCCAGAAAAGGGCAUCAGAUCUCAUUAUGUAUGUACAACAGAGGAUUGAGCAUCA | 3.1 ratio
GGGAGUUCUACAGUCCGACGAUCAAUUAUGUACUGCAAAAAUUUUUUUAAAUCUUCCGCCUUAAUACUUCAUUUUUGUUUUUAAUUUCUGAAUGGCCCAGGUCUGAGGCCUCCCUUUUUUUUGUCCCCCCAACUUGAUGUAUGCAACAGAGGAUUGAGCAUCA | 4.09 ratio
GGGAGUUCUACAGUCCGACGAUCCAUUCUAUAAGUUGCAAAGAGAAGUUGAAUAAAAAAAAUAAACUAGGAGCUGCAUUUACUGACGAUGGUUUUGCCAUGGGUGUGGCUUAUACCUUAAAGCUUUUGGAUCAGUACCAAGAGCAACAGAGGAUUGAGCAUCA | 0.945 ratio
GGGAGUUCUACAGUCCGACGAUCCCAGGCCAGGACCACGUGGCCGUGACCAUCCAGCUCCUCCUUAGACGAGGCAACAUCUUCCUCACGUCCUACCAGUACCCCUUCUACGACUGCCGCCAGGCCAUGAGCCUGGAGGAGAACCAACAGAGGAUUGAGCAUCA | 0.382 ratio
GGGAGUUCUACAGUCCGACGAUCAAACUAACACUCUGUAAUUUUUCUUUUAUGUCUUAUUUUCCAAGAGUCCUCCAUUUUUUGCACCCCCUCACCGCCAACUCUGUUAUUCAGUAGAGAGAAGUGUACGGCUUUCUGAUUGGUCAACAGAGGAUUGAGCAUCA | 0.951 ratio
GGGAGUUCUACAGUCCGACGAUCCCUGACAGCUGGGUGUGUGACUUAGGUAGGUGAGCCUGUGAAACAGUAUGAAGAGAAGAAAAUAGCCUUUUAAAGAGACUGGCCCACAGAAAGGAUGGCCUUCUUGGACAAUCCAACUAUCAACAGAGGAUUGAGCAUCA | 0.336 ratio
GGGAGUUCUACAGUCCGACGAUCAUUCAAGGCGAUAACCUAUUCAGUGGGUCCAGAGAUAAUGGAAUCAAGAAAUGGGACUUAGCUCAGAAAGGUCUUCUUCAGCAAGUCCCAAAUGCACACAAAGACUGGGUGUGUGCCCUGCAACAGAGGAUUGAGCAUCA | 0.151 ratio

Study 2 — technique: protein binding microarray; molecule type: double-stranded DNA, one strand shown; sample: in vitro; concentration: not given; relative to: not given; reading: higher = stronger binding
Target: Histone acetyltransferase KAT6A, winged helix 2, GST fusion (KAT6A, Homo sapiens, UniProt Q92794, residues 85-181)
Setting: 8-mer, flanks averaged, mean of 2 arrays, mostly near background
Residues (chain): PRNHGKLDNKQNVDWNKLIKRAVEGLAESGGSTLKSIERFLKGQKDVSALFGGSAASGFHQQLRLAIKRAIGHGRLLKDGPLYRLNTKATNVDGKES
Oligonucleotide | E-score
CAAGATAC | -0.0853
GCGTACAC | -0.0548
AATAAGCT | 0.0745
CCTACGTA | -0.0491
AGCCAACG | -0.048
ATGCTCTG | 0.108
ACTGTCTG | 0.0779
CCATAACC | -0.212
CTAGAAAG | -0.114
AGGGACTC | -0.172
AGCTTGGG | 0.14
GTGGCCGA | 0.11
ACTGACGG | 0.129
CTGCCTTA | -0.131
ATTATAAT | -0.0846
AATTAAAG | 0.0929
CTTAACGC | -0.144
GGCTATTA | -0.121
GAAGAGTA | -0.0868
CACTGACG | 0.137
ACGGAAGA | -0.131
ATTTACGG | 0.0468
AGAGGTTC | -0.0877
ACAAAGAT | -0.0192
GCCATTCA | -0.0597

Study 3 — target: UBE2I UBC core domain (UniProt P63279); technique: yeast two-hybrid; sample: yeast; setting: mostly zero background; relative to: not given; reading: higher = stronger interaction
B1: RNF14 RING domain (UniProt Q9UBS8); chain IKCFNSKLFLCSICFCEKLGSECMYFLECRHVYCKACLKDYFEIQIRDGQVQCLNCPEPKCPSVATPGQVK
B2: RNF149 RING domain (UniProt Q8NC42); chain EKGIDVDAENCAVCIENFKVKDIIRILPCKHIFHRICIDPWLLDHRTCPMCKLDVIKALGYW
B3: TRIM52 RING domain (UniProt Q96A61); chain PMQTLQEEAVCAICLDYFKDPVSISCGHNFCRGCVTQLWSKEDEEDQNEEEDEWEEEEDEEAV
B4: RNF32 RING domain (UniProt Q9H0A6); chain SLLQGDSVQPCPICKEEFELRPQVLLSCSHVFHKACLQAFEKFTNKKTCPLCRKNQYQTRVIH
B5: RNF5 RING domain (UniProt Q99942); chain ERGGAGATFECNICLETAREAVVSVCGHLYCWPCLHQWLETRPERQECPVCKAGISREKVVP
B6: MSL2 RING domain (UniProt Q9HCI7); chain LLPYFRQSLSCCVCGHLLQDPIAPTNSTCQHYVCKTCKGKKMMMKPSCSWCKDYEQFEENKQ
B7: RNF175 RING domain (UniProt Q8N4F7); chain LPTRSLSDNICAVCGQKIIVELDEEGLIENTYQLSCNHVFHEFCIRGWCIVGKKQTCPYCKEKVDLKRMIS
B8: RNF150 RING domain (UniProt Q9ULK6); chain DKETESDFDNCAVCIEGYKPNDVVRILPCRHLFHKSCVDPWLLDHRTCPMCKMNILKALGIP
B9: TRIM38 RING domain (UniProt O00635); chain STKKMMEEATCSICLSLMTNPVSINCGHSYCHLCITDFFKNPSQKQLRQETFCCPQCRAPFHMDSLRP
B10: PEX2 RING domain (UniProt P28328); chain DNTLATSGKECALCGEWPTMPHTIGCEHIFCYFCAKSSFLFDVYFTCPKCGTEVHSLQPLK
B11: UBE4A RING domain (UniProt Q14139); chain LQQQEEETYADACDEFLDPIMSTLMCDPVVLPSSRVTVDRSTIARHLLSDQTDPFNRSPLTMDQIRPNTELKEKIQRWLAERKQQKEQLE
Sequence | lacZ reporter activity
MANWVFCNRCFQPPHRTSCFSLTNCGHVYCDACLGKGKKNECLICKAPCRTVLLSK (RNF212 RING domain (UniProt Q495C1)) | 0
B1 (RNF14 RING domain) | 0
B2 (RNF149 RING domain) | 0
B3 (TRIM52 RING domain) | 0
SYEDKSNDFVCPICFDMIEEAYMTKCGHSFCYKCIHQSLEDNNRCPKCNYVVDNIDHLY (COP1 RING domain (UniProt Q8NHY2)) | 0
B4 (RNF32 RING domain) | 0
B5 (RNF5 RING domain) | 0
B6 (MSL2 RING domain) | 0
B7 (RNF175 RING domain) | 0
B8 (RNF150 RING domain) | 0
B9 (TRIM38 RING domain) | 0
B10 (PEX2 RING domain) | 0
B11 (UBE4A RING domain) | 0

Study 4 — technique: RNA Bind-n-Seq; molecule type: RNA; sample: in vitro; concentration: 365 nM; relative to: no-protein control; reading: higher = stronger binding
Target: RNA binding protein fox-1 homolog 2, RRM domain, GST-SBP tag (RBFOX2, Homo sapiens, UniProt O43251-10, residues 100-194)
Setting: natural RNA segment, single round, ends assumed
Target sequence (chain): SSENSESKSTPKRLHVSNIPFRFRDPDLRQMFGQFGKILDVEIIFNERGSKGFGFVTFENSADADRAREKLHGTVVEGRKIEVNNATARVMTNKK
Oligonucleotide | RBNS enrichment (R)
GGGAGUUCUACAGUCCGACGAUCCAUCCUCACACCUGUUCCCUCCAGAGGGCCCGGCUCCCUGCAUCAGGCAGCAGCCGCCCAUCUCGCCCCAACUGUUGGCUCCAGGCAGGGCUGGGCAGCAGGGAGCCUGGUGGAAUUCUCGGGUGCCAA | 0.357
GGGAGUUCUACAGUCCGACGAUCUGCCAUCCUUGUCUCUGCUUCCUUGGGGAGGGCUGCAGGGUGGCACAGCAGCCUGGCGUCAGUGACUGGUACCCCUUCUCCUGUGUCCAGUGCAGCCAUGGCAUGCCAGAUGGAAUUCUCGGGUGCCAA | 1.53
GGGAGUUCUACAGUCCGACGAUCUUGUAAAUAGUUGUUAUUUCUAUAUUUGGAUUGGUGAAAGACCUCAAGUUUAUAUGUAAAGACAUAACUGCCCUUAGUCAUGAAAUUGUUGUGACCUCUACUUUUUGUCAUGGAAUUCUCGGGUGCCAA | 0.61
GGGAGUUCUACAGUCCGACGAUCUCAGUGACUGCCUGUACCUGUGCAACCCUCGCUUGCUCCUUGGAGAACCUGACAGGACGCUGAAGAUGUGCGGGCAGUUGUGCACCGUCAGUGAGGGAGAGAGACCCCGAUGGAAUUCUCGGGUGCCAA | 0.502
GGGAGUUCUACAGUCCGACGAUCCCACCCAGCUCGGCCGUGGUGUAUUGUGGUCACUGCUGCUCCCUCUCCUUUACCCCCCACCCCCAUUUUGUUUUUGUAAACCAUCCCGUCCACAGUUGUCAGUUGUGAAGUGGAAUUCUCGGGUGCCAA | 2.45
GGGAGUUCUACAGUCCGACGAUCUUAAAGGGAAUGACUUUGAAGUAAAACCUUUUUUCUUGCUACUGAAAAAAAUGGAGUUGUUUUGGGUGGUAAAGUGUUAAGGAAUAGGGACAGCUGGUCACACAAGGAACUGGAAUUCUCGGGUGCCAA | 1.61
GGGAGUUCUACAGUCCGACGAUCCCCACUGCUGCUGCCUUUCAUUUAUAAUAAUAGCCCUUCCAUCUGGCAGCAGGAAGAGCGCACUCUCGACAUUCUUGUCUCUGCUUUAGAAUGCUGCUGUGUCUGUCAUGUGGAAUUCUCGGGUGCCAA | 0.912
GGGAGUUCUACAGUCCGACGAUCCACAUGUAUGACAGAGAACAGAGGAUGCCUGUUUUUGCCCCAAAGCUGGAAAUUCAUCACAACCUGAGGCCCAGGAUCUGCUCUGUGCCGGUCCUCUGGGCAGUGUGGGGUGGAAUUCUCGGGUGCCAA | 0.593
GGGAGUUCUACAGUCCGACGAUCCGGCUGUUCCACCCACCCCUCUUUAUUCUGGAGCAUAUCAGGGAAAGAAAAGUUGAUGAUAGAUUGCCUUCACCCUCACAGCGCACAAAUAAAGCUACGAUGCCAACUUUUGGAAUUCUCGGGUGCCAA | 0.864
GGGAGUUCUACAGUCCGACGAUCACACAGAAUGGAACUGUGAGUGGAGAGAUGAAUAAGUUGCCCCCCCAGCCCCCCUUCCCAUUUGUUUCUCCUUCUCUAAUCCCAGGGACUAUGGUAGAGACUUGCUGCUCUGGAAUUCUCGGGUGCCAA | 0.579
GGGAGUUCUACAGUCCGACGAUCCUCUGCACACAAUAGGUGCUUCUUGGAUGUUCUUGGGUUUGGAAAUAAGUGGAAAAUACGGGAUGUACCCCUGGGGGAAAAGCCUGGGUUGGGUUUAGAAAGAUCUCAGGUGGAAUUCUCGGGUGCCAA | 1.11
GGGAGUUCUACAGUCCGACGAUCGUUUCCCCUCUUUGGUUCUCAAAUAGCAUAGUUUAAUAACGAGUCAGACCGUAUUACAACAAAAACAAACGUCCCUUUCGUUCCUUGUGAGAUUUUCAUCCAAAGCCACAUGGAAUUCUCGGGUGCCAA | 0.44

Some of these lines once more (study 2):
Oligonucleotide | E-score
GCCATTCA | -0.0597
AATTAAAG | 0.0929
CTGCCTTA | -0.131
ATTTACGG | 0.0468
ACTGACGG | 0.129
